Measurements collected from several papers.
Each line is one published result; not all experiments were run side by side. ± gives the spread as reported.

| Compound | assay | system | conditions | scale | measurement | result |
| --- | --- | --- | --- | --- | --- | --- |
| CC(C)[C@H](NC(=O)[C@@H]1CCCN1C(=O)[C@H](CCCNC(=N)N)NC(=O)[C@H](CS)NC(=O)[C@H](Cc1c[nH]c2ccccc12)NC(=O)[C@H](CCCNC(=N)N)NC(=O)[C@@H](Cc1ccccc1)NC(=O)[C@H](Cc1c[nH]cn1)NC(=O)[C@H](CCC(=O)O)NC(=O)[C@H](CS)NC(=O)[C@H](CS)NC(=O)[C@@H]1CC(=O)N[C@@H](CCCNC(=N)N)C(=O)NCC(=O)N[C@@H](CC(=O)O)C(=O)N[C@H](Cc2ccc(O)cc2)C(=O)N1)C(N)=O [technetium-99m labelled] | – | C57 mouse, female, B16/F1 melanoma | intravenous, 0.037 MBq, 2 h | relative to: tumour over muscle | tumour to tissue ratio | 80.6 |
| COC(=O)c1ccc2c(c1)NC(=O)/C2=C(\Nc1ccc2c(c1)CCN2C(=O)CN1CCOCC1)c1ccccc1 | – | cynomolgus monkey, plasma | oral, 5 mg/kg | – | Tmax | 6 h |
| COC(=O)C(c1ccccc1Cl)N1CCC(SCC(=O)c2cccc(OC)c2)C(=CC(=O)O)C1 (mixture of isomers) | HPLC-MS/MS | feline citrate plasma | 100 ng/mL, 12 h, -80 °C, storage stability | – | deviation from nominal | -1% |
| CC(C)(Sc1cc[n+]([O-])cc1-c1ccc(C#N)c2ccccc12)C(=O)OC1OC(C(=O)O)C(O)C(O)C1O (stereo not drawn) | – | plasma | oral, 15 mg, severe renal impairment, fasted | – | terminal half-life | 22.8 h |
| COc1ccc(NC(=O)[C@H](CCCCN)NC(=O)c2cc(NC(=O)[C@H](CCCCN)NC(=O)c3cc(NC(=O)[C@H](CCCCN)NC(=O)c4cc(N)ccc4OC)ccc3OC)ccc2OC)cc1C(N)=O | ITC heats of dilution | TBS | pH 7.4, 25 °C, hexamer to monomer | – | enthalpy of dissociation | 15.7 kcal/mol |
| CCCC[C@@H]1NC(=O)[C@@H](NC(=O)[C@H](CCC(=O)O)NC(=O)CNC(=O)CN2CCN(CC(=O)O)CCN(CC(=O)O)CCN(CC(=O)O)CC2)CCCCNC(=O)C[C@@H](C(N)=O)NC(=O)[C@H](C(C)C)NC(=O)[C@@H]2CCCN2C(=O)[C@H](CCCNC(=N)N)NC(=O)CNC(=O)[C@H](Cc2c[nH]c3ccccc23)NC(=O)[C@H](CCCNC(=N)N)NC(=O)[C@@H](Cc2ccccc2)NC(=O)[C@H](Cc2c[nH]cn2)NC(=O)[C@H](CCC(=O)O)NC1=O [gallium-67 labelled] | – | C57 mice with B16/F1 melanoma, blood | intravenous, 4 h | – | tissue uptake | 0.17 ± 0.13 %ID/g |
| Cc1ccc(-c2ccc(-c3cc4sccc4o3)cn2)nc1 | TCSPC | acetonitrile | zinc-free ligand | – | fluorescence lifetime | 1.3 ns |
| Cc1ccc(OCC(=O)O)cc1 | – | Sprague-Dawley rat Crl:CD(SD), male, plasma | oral, 100 mg/kg/day of parent drug, day 90, 90-day repeated dosing | – | Tmax | 3 h |
| CC(=O)N[C@@H](CO)C(=O)N[C@@H](CC(=O)O)C(=O)N[C@@H](CCCCN)C(=O)N1CCC[C@H]1C(=O)O | H&E histology | rat embolic MCAO model | dose not given, start 1 h after MCAO, read day 7 | – | haemorrhage incidence | 28% |
| C=C(c1cc(F)c(C(=O)O)c(F)c1)c1cc2c(cc1C)C(C)(C)CCC2(C)C | – | Sprague-Dawley rat, male, plasma | oral, 100 mg/kg, 12 h, sesame oil vehicle | – | HDL level | 46 ± 12.1 mg/dL |
| C[C@H](NC(=O)COC(=O)[C@H](C)NC(=O)CO)C(=O)O | – | water | pH 5, 37 °C | – | depolymerization half-life | 12.6 h |
| Cn1c(=O)oc2ccc(-c3ccc(CC(C#N)NC(=O)C4CNCCCO4)c(F)c3)cc21 (stereo not drawn) | refers to: macule | human | 40 mg single dose, fasted | – | subjects with TRAE | 0% |
| CC(C)(O)c1ncc([S@](N)(=O)=NC(=O)Nc2c3c(cc4c2CCC4)CCC3)s1 | – | healthy humans | oral, suspension, median range, all single doses | – | Tmax | 0.76 to 3 h |
| CC(=O)N[C@H](CC(=O)O)C(=O)N[C@H](Cc1c[nH]c2ccccc12)C(=O)N[C@H](Cc1ccccc1)C(=O)N[C@H](CCCCN)C(=O)N[C@H](C)C(=O)N[C@H](Cc1ccccc1)C(=O)N[C@H](Cc1ccc(O)cc1)C(=O)N[C@H](CC(=O)O)C(=O)N[C@H](CCCCN)C(=O)N[C@@H](C(=O)N[C@H](C)C(=O)N[C@H](CCC(=O)O)C(=O)N[C@H](CCCCN)C(=O)N[C@H](Cc1ccccc1)C(=O)N[C@H](CCCCN)C(=O)N[C@H](CCC(=O)O)C(=O)N[C@H](C)C(=O)N[C@H](Cc1ccccc1)C(N)=O)C(C)C | – | statin-treated high-risk CHD men, plasma | oral, 300 mg daily, day 1, 0 to 2 h, mean, detected subjects only | – | Cmax | 5.7 ng/mL |
| C#CCOc1ccc(/C=C2\SC(=O)N(CC(=O)NCc3ccccc3)C2=O)cc1 | inverse Kirkwood-Buff integrals | binary solvent mixture | 298.15 K, mole fraction x1 0.30 | – | Kirkwood-Buff integral G1,3 | -270 cm³/mol |

For quick reference, copied from above:
| Compound | assay | system | conditions | scale | measurement | result |
| --- | --- | --- | --- | --- | --- | --- |
| C[C@H](NC(=O)COC(=O)[C@H](C)NC(=O)CO)C(=O)O | – | water | pH 5, 37 °C | – | depolymerization half-life | 12.6 h |
| C=C(c1cc(F)c(C(=O)O)c(F)c1)c1cc2c(cc1C)C(C)(C)CCC2(C)C | – | Sprague-Dawley rat, male, plasma | oral, 100 mg/kg, 12 h, sesame oil vehicle | – | HDL level | 46 ± 12.1 mg/dL |
